Published values pooled from the literature.
Numbered parts are unrelated; each lists some results of a single study.

Series 1
Target: Sal-like protein 4, full length isoform A (SALL4, Homo sapiens, UniProt Q9UJQ4, residues 1-1053)
Sequence of UniProt Q9UJQ4 (whole entry, looked up): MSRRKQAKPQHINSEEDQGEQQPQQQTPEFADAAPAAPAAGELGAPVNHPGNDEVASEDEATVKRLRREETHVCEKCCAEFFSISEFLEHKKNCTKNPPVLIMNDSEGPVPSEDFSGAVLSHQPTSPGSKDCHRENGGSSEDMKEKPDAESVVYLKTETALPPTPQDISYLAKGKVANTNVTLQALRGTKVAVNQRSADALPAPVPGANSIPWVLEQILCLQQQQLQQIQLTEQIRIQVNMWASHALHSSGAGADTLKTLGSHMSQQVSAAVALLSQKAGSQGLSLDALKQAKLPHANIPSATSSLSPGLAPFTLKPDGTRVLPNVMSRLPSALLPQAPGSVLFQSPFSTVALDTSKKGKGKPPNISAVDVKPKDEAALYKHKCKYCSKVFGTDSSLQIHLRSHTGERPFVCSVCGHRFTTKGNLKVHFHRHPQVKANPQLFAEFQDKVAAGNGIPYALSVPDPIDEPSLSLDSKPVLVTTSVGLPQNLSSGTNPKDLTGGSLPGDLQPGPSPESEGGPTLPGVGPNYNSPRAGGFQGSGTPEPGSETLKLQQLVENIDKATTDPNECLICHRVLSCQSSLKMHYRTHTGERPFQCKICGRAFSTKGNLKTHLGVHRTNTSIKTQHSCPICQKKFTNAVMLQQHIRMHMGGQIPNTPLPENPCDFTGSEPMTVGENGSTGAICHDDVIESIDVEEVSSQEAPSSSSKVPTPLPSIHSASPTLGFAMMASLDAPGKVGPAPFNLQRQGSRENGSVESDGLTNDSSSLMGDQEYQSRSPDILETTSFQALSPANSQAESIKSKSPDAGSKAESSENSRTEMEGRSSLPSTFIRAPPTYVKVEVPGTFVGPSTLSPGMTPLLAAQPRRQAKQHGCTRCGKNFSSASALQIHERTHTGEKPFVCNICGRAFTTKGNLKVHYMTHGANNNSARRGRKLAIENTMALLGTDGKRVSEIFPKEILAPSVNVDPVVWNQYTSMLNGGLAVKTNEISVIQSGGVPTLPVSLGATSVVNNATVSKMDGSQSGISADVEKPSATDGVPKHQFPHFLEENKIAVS
Technique: universal PBM
Form: double-stranded DNA, one strand shown
Medium: in vitro
Tested at: 600 nM
Notes: 8-mer, flanks averaged, mean of replicates
Reading: higher = stronger binding
Oligonucleotide | E-score
ACCCAGTG | -0.237
GAACGCCA | -0.239
CGCTGAAC | -0.0406

Series 2
Target: Histone acetyltransferase KAT6A, both winged helices, GST fusion (KAT6A, Homo sapiens, UniProt Q92794, residues 1-181)
Technique: protein binding microarray
Form: double-stranded DNA, one strand shown
Medium: in vitro
Tested at: not given
Notes: 8-mer, flanks averaged, mean of 2 arrays, mostly near background
Relative to: not given
Reading: higher = stronger binding
Target sequence (chain): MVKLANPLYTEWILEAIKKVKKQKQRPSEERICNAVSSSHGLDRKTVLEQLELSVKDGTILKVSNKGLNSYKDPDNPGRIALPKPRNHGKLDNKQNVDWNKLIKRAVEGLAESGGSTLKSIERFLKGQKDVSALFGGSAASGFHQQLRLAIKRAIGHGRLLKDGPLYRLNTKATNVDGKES
Oligonucleotide | E-score
AGCTTTTG | -0.116
AGTGGCCA | -0.173
AAATTGGG | -0.153

Single results of other studies
IRF7 S471D/S472D/S475D/S476D/S477D/S483D/S484D/S487D full length, phosphomimetic: Interferon regulatory factor 7, full length, phosphomimetic (IRF7, Homo sapiens, UniProt Q92985, residues 1-503, S471D/S472D/S475D/S476D/S477D/S483D/S484D/S487D)
Sequence of UniProt Q92985 (whole entry, unmodified, looked up): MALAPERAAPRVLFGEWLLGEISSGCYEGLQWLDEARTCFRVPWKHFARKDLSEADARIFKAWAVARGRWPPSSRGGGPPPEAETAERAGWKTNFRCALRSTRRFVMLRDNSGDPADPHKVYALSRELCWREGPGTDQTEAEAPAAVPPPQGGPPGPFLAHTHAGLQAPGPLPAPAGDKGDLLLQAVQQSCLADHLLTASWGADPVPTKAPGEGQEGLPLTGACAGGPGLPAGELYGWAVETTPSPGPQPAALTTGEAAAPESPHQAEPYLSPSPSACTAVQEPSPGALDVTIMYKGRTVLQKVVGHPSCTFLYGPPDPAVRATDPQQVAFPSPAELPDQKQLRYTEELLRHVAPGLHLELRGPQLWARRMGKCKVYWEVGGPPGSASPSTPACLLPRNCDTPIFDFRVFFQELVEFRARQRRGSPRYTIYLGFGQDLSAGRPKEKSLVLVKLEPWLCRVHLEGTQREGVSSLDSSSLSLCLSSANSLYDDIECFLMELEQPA
Substance | target | test | test system | setting | how to read | endpoint | value
GCCTAGCACTTAGGTTTCGACTTTCGGCTAGTGCTAGTCTTGATTCGCTTGACGCTGCTG | IRF7 S471D/S472D/S475D/S476D/S477D/S483D/S484D/S487D full length, phosphomimetic | protein-binding microarray | double-stranded DNA, one strand shown, in vitro | 2200 nM top, 60-bp whole probe, with: salmon DNA 0.4 mg/ml | relative to: random background probes, higher = stronger binding | fitted relative affinity | 7.79 z-score
PhoQ, residues 284 288 289 292 302 303 SSLVEF | PhoP, residues 12 14 15 18 19 NNFVT (Escherichia coli, UniProt P23836) | Sort-seq, refers to: YFP reporter | E. coli | PhoQ-PhoP variant library, with: 10 µM Mg2+ | relative to: high Mg2+ state, higher = stronger signaling | fold induction | 1.56
GCCTAGCACTTAGGACTGGACTTTCCGTTAGTGCTAGTCTTGATTCGCTTGACGCTGCTG | IRF7 S471D/S472D/S475D/S476D/S477D/S483D/S484D/S487D full length, phosphomimetic | protein-binding microarray | double-stranded DNA, one strand shown, in vitro | 2200 nM top, 60-bp whole probe, with: salmon DNA 0.4 mg/ml | relative to: random background probes, higher = stronger binding | fitted relative affinity | 1.46 z-score

For quick reference, copied from above (series 2):
Oligonucleotide | E-score
AGTGGCCA | -0.173
